Measurements gathered from unrelated publications.
Compare with care: the assays were run in different laboratories.
Target: Cyclin-dependent kinase-like 1 (CDKL1, Homo sapiens, UniProt Q00532)

SMILES	assay	conditions	how to read	endpoint	value
CN1CC[C@@H](COc2cnc(C#N)cc2-c2ccn3nc(NC(=O)C4CC4)cc3c2)C1	enzyme activity, inhibitor	1 µM		inhibition	19%
CNC1C[S+]2CC[S+]3CC[S+](C1)[Ru-4]321([N]=C=S)[n]2c3ccc(OC)cc3c3c4c(c5cc(F)c[n+]1c5c32)C(=O)NC4=O (stereo not drawn)	KinomeScan	0.1 µM	relative to: untreated	remaining binding	100%
CCN1CCN(Cc2ccc(C(=O)Nc3ccc(C)c(NCc4cnc5[nH]ccc5c4OC)c3)cc2C(F)(F)F)CC1	binding, competition with immobilised ligand	1 µM		remaining binding	72%
Nc1ncc2c(n1)-c1c([nH]c3ccc(C4=CCOCC4)cc13)CCC2	binding, competition with immobilised ligand	1 µM		remaining binding	98%
C=CC(=O)N1CCCC(n2c(=O)c3ncccc3n(Cc3ccc(Oc4ccccc4)cc3)c2=O)C1 (stereo not drawn)	cell-free assay, competition with immobilised ligand	1 µM		remaining binding	89%
CC(C)=CC1OC(C)(C)C2C=C3C(=O)C(Cl)=CC(O)C3C3C(O)C4OC4C(=O)C132 (stereo not drawn)	cell-free assay, competition with immobilised ligand	10 µM		remaining binding	70%
CNC(=O)C[C@H](Cc1ccc(C#N)cc1)NC(=O)c1cc(-c2ccc(CN[C@H](C)c3ccc(C)cc3)o2)ccc1Cl	enzyme activity, inhibitor	1 µM		activity vs control	103%
O=C(Cc1ccc(OCc2ccccc2)cc1)NC1(C(=O)O)CCN(C(=O)c2ccc(-c3cccc(Cl)c3)cc2)CC1	enzyme activity, inhibitor	10 µM		activity vs control	94%
COc1c(Cl)cccc1Nc1c(-c2ccncc2C#C[C@@]2(C)CCCN2C(=O)/C=C/CN(C)C)[nH]c2c1C(=O)NCC2	binding, competition with immobilised ligand	3 µM		remaining binding	82%
Cc1ccc(-c2c(/C=C(\C#N)C(=O)NC(C)C)n(CCCO)c3ncnc(N)c23)cc1	cell-free assay, competition with immobilised ligand	1 µM		remaining binding	100%
C=CC(=O)N1CCc2ccc(-n3c(=O)ccc4cnc5ccc(-c6cnn(C)c6)cc5c43)cc21	KINOMEscan	1 µM	relative to: DMSO control	remaining binding	68%
CNC(=O)C1CCN(c2cc(C)c(F)cc2NC(=O)c2ccc(-c3cc(O)ccc3C)c(C)c2)CC1	binding, competition with immobilised ligand	1 µM		remaining binding	72%
O=C(NCC1CCOCC1)c1n[nH]cc1NC(=O)c1c(F)cccc1F	scanMAX	1 µM	relative to: control	remaining binding	93%
COc1cc(Nc2nccc(-c3cnn4nc(OC)ccc34)n2)cc(C(F)(F)F)c1	binding, competition with immobilised ligand	1 µM		remaining binding	71%
Cc1cnc2nc1Nc1cccc(c1)COC/C=C/COCc1cc(ccc1OCCN1CCOCC1)N2	binding	0.1 µM		remaining binding	89%

Excerpt of the above:
SMILES	assay	conditions	how to read	endpoint	value
CC(C)=CC1OC(C)(C)C2C=C3C(=O)C(Cl)=CC(O)C3C3C(O)C4OC4C(=O)C132 (stereo not drawn)	cell-free assay, competition with immobilised ligand	10 µM		remaining binding	70%
